Measured values collected from several papers.
Every numbered part comes from another study and shows a few of its results, in no order.
UniProt Q9H2G2, sequence (whole entry, looked up): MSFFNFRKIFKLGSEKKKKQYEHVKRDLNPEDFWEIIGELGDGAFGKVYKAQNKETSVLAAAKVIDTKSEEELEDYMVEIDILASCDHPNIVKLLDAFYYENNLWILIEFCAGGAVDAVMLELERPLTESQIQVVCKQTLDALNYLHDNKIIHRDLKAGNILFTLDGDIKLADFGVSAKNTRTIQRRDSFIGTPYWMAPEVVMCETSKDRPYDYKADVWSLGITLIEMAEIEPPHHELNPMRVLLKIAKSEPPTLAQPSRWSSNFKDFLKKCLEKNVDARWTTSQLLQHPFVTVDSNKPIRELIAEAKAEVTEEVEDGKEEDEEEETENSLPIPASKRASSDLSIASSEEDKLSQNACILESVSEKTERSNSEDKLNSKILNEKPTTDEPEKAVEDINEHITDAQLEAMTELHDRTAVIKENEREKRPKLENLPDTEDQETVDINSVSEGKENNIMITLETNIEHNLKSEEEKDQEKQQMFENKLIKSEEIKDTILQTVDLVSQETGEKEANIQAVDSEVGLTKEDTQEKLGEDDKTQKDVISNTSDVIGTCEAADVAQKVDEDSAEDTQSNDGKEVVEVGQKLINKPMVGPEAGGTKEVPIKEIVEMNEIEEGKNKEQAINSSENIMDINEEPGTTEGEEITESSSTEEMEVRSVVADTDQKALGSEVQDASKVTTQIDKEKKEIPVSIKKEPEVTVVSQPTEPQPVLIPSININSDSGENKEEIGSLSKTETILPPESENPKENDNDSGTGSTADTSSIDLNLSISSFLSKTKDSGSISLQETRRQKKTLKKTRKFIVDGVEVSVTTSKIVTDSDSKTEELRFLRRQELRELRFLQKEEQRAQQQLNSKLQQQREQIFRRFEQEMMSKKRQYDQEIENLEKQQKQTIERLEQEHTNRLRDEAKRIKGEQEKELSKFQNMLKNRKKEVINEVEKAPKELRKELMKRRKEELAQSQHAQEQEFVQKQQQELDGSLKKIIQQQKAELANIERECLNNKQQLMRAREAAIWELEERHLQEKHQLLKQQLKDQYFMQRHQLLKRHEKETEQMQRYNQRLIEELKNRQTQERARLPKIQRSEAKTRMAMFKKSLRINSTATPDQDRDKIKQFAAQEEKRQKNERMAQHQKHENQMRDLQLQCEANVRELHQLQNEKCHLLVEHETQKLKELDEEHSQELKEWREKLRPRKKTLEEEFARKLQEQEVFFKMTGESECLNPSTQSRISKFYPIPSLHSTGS
UniProt Q9Y4K4, sequence (whole entry, looked up): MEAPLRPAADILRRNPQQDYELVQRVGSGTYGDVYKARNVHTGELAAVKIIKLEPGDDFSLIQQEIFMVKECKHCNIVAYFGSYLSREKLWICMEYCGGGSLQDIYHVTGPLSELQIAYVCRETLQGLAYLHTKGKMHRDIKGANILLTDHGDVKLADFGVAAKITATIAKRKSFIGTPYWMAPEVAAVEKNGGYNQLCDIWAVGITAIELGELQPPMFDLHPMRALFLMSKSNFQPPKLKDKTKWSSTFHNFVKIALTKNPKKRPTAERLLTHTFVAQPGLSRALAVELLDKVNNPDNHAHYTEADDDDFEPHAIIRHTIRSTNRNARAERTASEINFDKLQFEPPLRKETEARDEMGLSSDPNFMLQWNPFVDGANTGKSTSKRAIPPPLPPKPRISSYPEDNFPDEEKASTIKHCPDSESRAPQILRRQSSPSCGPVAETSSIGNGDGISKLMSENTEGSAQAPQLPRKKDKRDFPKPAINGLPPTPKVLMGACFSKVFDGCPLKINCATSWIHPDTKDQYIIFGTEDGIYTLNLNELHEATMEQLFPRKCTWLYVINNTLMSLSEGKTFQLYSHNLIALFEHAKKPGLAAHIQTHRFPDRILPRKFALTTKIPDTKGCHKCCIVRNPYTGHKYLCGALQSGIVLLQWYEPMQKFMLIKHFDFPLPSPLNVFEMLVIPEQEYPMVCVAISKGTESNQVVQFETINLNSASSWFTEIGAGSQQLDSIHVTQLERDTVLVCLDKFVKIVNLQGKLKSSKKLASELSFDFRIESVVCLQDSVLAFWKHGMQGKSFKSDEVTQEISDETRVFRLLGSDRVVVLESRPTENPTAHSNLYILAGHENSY
UniProt Q8TDC3, sequence (whole entry, looked up): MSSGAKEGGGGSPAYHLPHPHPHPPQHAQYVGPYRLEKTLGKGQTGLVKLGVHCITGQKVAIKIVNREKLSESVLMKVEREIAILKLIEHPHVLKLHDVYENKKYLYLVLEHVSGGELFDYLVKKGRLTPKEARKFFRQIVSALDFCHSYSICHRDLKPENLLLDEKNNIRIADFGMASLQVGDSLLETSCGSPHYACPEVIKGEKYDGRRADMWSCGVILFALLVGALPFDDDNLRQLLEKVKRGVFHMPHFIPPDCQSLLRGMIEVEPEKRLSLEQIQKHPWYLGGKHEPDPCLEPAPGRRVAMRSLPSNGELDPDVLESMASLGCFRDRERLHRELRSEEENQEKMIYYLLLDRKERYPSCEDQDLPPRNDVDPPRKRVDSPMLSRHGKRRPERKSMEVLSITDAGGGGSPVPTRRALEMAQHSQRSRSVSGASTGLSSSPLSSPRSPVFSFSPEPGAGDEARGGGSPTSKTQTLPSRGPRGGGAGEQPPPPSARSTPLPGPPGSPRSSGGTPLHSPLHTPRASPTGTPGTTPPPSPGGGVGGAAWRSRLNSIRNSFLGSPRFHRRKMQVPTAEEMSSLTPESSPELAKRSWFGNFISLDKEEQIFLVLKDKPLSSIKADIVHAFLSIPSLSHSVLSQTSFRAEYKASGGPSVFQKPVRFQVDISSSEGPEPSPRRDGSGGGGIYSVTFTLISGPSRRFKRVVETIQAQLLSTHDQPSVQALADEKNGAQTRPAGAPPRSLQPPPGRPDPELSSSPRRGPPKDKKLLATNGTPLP
UniProt Q09013, sequence (whole entry, looked up): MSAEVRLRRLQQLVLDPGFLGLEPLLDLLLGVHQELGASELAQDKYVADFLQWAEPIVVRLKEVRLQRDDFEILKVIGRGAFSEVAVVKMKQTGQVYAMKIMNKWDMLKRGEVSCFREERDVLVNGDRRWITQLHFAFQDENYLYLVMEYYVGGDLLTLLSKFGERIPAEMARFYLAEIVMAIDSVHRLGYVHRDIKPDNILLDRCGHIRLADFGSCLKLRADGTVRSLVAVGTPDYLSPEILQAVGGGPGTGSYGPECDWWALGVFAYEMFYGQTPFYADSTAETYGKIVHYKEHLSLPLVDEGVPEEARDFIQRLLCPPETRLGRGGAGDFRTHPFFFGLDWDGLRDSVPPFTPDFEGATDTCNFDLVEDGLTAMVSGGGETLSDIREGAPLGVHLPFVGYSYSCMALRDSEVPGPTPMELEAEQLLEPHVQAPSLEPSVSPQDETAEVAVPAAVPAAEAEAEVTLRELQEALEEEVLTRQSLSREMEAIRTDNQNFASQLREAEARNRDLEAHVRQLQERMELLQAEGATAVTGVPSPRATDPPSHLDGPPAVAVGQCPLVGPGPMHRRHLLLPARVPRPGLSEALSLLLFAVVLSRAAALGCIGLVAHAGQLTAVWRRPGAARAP
UniProt P19784, sequence (whole entry, looked up): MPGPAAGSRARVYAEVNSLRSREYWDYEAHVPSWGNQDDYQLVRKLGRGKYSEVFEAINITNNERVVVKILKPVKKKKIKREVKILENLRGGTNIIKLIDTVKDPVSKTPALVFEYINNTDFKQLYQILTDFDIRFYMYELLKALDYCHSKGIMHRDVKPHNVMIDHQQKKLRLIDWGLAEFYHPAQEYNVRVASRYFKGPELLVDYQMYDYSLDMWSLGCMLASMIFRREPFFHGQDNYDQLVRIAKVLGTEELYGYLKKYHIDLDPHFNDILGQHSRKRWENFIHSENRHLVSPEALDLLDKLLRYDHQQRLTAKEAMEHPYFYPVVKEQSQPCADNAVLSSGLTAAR
UniProt Q9Y2U5, sequence (whole entry, looked up): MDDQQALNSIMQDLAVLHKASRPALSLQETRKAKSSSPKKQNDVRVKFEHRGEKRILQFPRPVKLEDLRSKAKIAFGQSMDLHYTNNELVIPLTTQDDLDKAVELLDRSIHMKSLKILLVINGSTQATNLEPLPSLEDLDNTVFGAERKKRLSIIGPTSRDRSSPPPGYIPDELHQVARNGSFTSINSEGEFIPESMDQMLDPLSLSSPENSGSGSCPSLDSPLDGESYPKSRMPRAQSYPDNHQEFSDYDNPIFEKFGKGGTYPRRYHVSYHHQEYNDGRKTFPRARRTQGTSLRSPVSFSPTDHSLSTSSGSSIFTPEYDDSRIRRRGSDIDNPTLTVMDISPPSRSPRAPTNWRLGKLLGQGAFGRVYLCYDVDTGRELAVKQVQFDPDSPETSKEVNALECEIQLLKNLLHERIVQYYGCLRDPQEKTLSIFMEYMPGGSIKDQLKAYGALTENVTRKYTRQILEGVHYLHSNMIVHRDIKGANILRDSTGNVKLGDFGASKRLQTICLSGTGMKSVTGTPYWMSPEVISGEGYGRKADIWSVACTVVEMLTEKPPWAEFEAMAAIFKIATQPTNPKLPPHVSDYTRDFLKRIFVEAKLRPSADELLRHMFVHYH
UniProt P53779, sequence (whole entry, looked up): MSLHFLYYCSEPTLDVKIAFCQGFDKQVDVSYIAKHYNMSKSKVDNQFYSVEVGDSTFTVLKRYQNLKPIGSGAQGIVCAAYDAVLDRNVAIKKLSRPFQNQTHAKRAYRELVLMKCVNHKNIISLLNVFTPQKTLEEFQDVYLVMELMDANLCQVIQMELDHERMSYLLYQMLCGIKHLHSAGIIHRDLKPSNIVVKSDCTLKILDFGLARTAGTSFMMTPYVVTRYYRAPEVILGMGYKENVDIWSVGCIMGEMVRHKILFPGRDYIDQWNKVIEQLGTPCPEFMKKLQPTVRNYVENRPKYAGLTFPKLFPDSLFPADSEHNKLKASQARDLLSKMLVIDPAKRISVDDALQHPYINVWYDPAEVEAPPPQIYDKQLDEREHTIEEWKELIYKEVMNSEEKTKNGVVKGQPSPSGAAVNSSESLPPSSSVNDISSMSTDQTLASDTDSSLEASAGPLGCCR

Study 1
Host: mouse
Medium: microsomes or S9
Concentration: 2 µM
Time: 0.5 h
Endpoint: remaining compound
Cc1ccc(Nc2n[nH]c(N)c2S(=O)(=O)c2ccccc2)cc1: 2.62%
c1nc(N2CCN(C3CCCCC3)CC2)c2nc[nH]c2n1: 25.4%
O=S(=O)(c1ccccc1)c1nc(-c2ccccc2)oc1NCC1CCCO1 (centres unmarked): 1.72%
CN1C(=O)c2[nH]nc(-c3ccccc3)c2C1c1ccco1 (centres unmarked): 16.7%
CC(=O)CC1c2ccc(Br)cc2NC(C)(C)C(=O)N1OCc1ccccc1 (centres unmarked): 96.5%
CCC(c1ccccn1)n1cc(-c2nn(C)c3cccc(Cl)c23)nn1 (centres unmarked): 5.78%
O=C1OCc2c(-c3ccccc3)sc(-c3ccccc3)c21: 3.71%
COc1cc(Cn2nnc(-c3ccc(C)cc3)n2)c(OC)cc1Br: 98.8%
Cc1nccn1S(=O)(=O)c1ccc(C(C)(C)C)cc1: 17.8%
COc1ccc(OC)c(Nc2nc(CC(=O)NCCc3c[nH]c4ccccc34)cs2)c1: 3.06%
Cc1cc2c(cc1S(=O)(=O)N(C)CC(=O)N(C)Cc1ccco1)OC(C)C(=O)N2 (centres unmarked): 0.559%
O=C(c1c2c(nc3ccccc13)C(=O)N(C1CCCCC1)C2)N1CCN(c2ccccn2)CC1: 26.4%
Cn1cnnc1-c1nn(C)c2c1CN(C(=O)c1n[nH]c3c1CCCCCC3)CC2: 0.199%

Study 2
SMILES: N#CC(=C(N)Sc1ccc(N)cc1)c1ccccc1C(F)(F)F
Observed: enzyme activity
Action: inhibitor
Concentration: 0.5 µM
Relative to: control
Endpoint: remaining activity
HIPK3 (Homo sapiens, UniProt Q9H422): 114%
Aurora kinase A (AURKA, Homo sapiens, UniProt O14965): 103%
NEK9 (Homo sapiens, UniProt Q8TD19): 99.2%
SLK (Homo sapiens, UniProt Q9H2G2): 102%
CAMK1D (Homo sapiens, UniProt Q8IU85): 129%
BRSK1 (Homo sapiens, UniProt Q8TDC3): 91.2%
CDK7 (Homo sapiens, UniProt P50613): 100%
ROS1 (Homo sapiens, UniProt P08922): 94.4%
NTRK3 (Homo sapiens, UniProt Q16288): 101%
EGFR (Homo sapiens, UniProt P00533): 97.3%
Cyclin-dependent kinase 2, with cyclin A (CDK2, Homo sapiens, UniProt P24941): 95.9%
PKN2 (Homo sapiens, UniProt Q16513): 99.9%
ROCK2 (Homo sapiens, UniProt O75116): 100%
MAP3K2 (Homo sapiens, UniProt Q9Y2U5): 115%
DMPK (Homo sapiens, UniProt Q09013): 102%
MAPK10 (Homo sapiens, UniProt P53779): 94.7%
CAMK1G (Homo sapiens, UniProt Q96NX5): 96.6%
PRKD1 (Homo sapiens, UniProt Q15139): 103%
PTK2B (Homo sapiens, UniProt Q14289): 105%
CSNK2A2 (Homo sapiens, UniProt P19784): 86%
GRK5 (Homo sapiens, UniProt P34947): 102%
DYRK4 (Homo sapiens, UniProt Q9NR20): 92.4%
RET (Homo sapiens, UniProt P07949): 101%
MAP3K8 (Homo sapiens, UniProt P41279): 96.5%

Study 3
SMILES: COc1ccc(-c2c(Nc3ccccn3)[nH]c3c(C4=CCCCC4)c(-c4ccccc4)nn3c2=O)cc1
Medium: plasma
Endpoint: geometric mean plasma concentration
refers to: S-adenosylmethionine; human patients; oral, 400 mg once daily, 6 h, cycle 1: 18.4 ng/mL
human; oral, 400 mg once daily, 4 h, cycle 1: 2830 ng/mL
refers to: methionine; human patients; 400 mg once daily, 4 h, cycle 400: 78500 ng/mL
human; oral, 200 mg once daily, 3 h, cycle 1: 5080 ng/mL
human; oral, 100 mg once daily, 2 h, cycle 1: 3300 ng/mL
refers to: S-adenosylmethionine; human patients; oral, 400 mg once daily, 8 h, cycle 1: 18.5 ng/mL
refers to: S-adenosylmethionine; human patients; oral, 400 mg once daily, 2 h, cycle 1: 17.6 ng/mL
refers to: methionine; human patients; 100 mg once daily, 2 h, cycle 100: 81900 ng/mL

Study 4
Structure (SMILES): CCCOc1ccc([C@H]2[C@H](C(=O)O)[C@@H](c3ccc4c(c3)OCO4)CN2CC(=O)Nc2c(CC)cccc2CC)cc1
Technique: competition with immobilised ligand
Concentration: 1 µM
Endpoint: remaining binding
EGFR (Homo sapiens, UniProt P00533, G719S); cell-free assay: 89%
EGFR (Homo sapiens, UniProt P00533); cell-free assay: 100%
DAPK2 (Homo sapiens, UniProt Q9UIK4); cell-free assay: 100%
Tyrosine-protein kinase ABL1, phosphorylated (ABL1, Homo sapiens, UniProt P00519, F317L); cell-free assay: 68%
TXK (Homo sapiens, UniProt P42681); binding: 85%
CSK (Homo sapiens, UniProt P41240); cell-free assay: 80%
SRMS (Homo sapiens, UniProt Q9H3Y6); cell-free assay: 63%
PIP4K2B (Homo sapiens, UniProt P78356); cell-free assay: 97%
MARK3 (Homo sapiens, UniProt P27448); cell-free assay: 100%
IRAK4 (Homo sapiens, UniProt Q9NWZ3); cell-free assay: 76%
MAP4K5 (Homo sapiens, UniProt Q9Y4K4); cell-free assay: 93%

Some of these lines once more (study 3):
human; oral, 100 mg once daily, 2 h, cycle 1: 3300 ng/mL
refers to: S-adenosylmethionine; human patients; oral, 400 mg once daily, 8 h, cycle 1: 18.5 ng/mL
refers to: S-adenosylmethionine; human patients; oral, 400 mg once daily, 2 h, cycle 1: 17.6 ng/mL
refers to: methionine; human patients; 100 mg once daily, 2 h, cycle 100: 81900 ng/mL
